Published values gathered from unrelated publications.
Lines come from different studies, so protocols differ. ± marks the error that the study gave.

Molecule	target or system	assay	test system	conditions	how to read	quantity	result
human ME2 D102S	–	enzyme activity, substrate	recombinant enzyme	pH 7.4, added: fumarate 3 mM	–	K0.5	3.37 ± 0.12 mM
human insulin	–	ELISA	pig, juvenile, anaesthetized, serum	subcutaneous, 20 IU, --20 to +420 min, euglycaemic clamp	–	Cmax	0.342 ± 0.05 nM
human ME2 P78D	–	enzyme activity, substrate	recombinant enzyme	pH 7.4, added: fumarate 3 mM	–	K0.5	4.56 ± 0.14 mM
ACDDQNPWRAYLDLLFPTDTLLLDLLW	–	ex vivo fluorescence imaging	peptide, BALB/c mice, 4T1 tumour-bearing, muscle	intravenous, 5 nmol, 2 h post-injection	higher = more uptake	mean fluorescence intensity	963 ± 121 a.u.
human ME2 I99V	–	enzyme activity, substrate	recombinant enzyme	pH 7.4, added: fumarate 3 mM	–	K0.5	4.76 ± 0.19 mM
KRRRC	HUVEC	ICP-OES, item: rhenium	peptide	concentration not given, 24 h, 37 °C	–	cellular uptake	0.237 ppm
insulin	–	LC-MS/MS	prepared human sample	two freeze-thaw cycles	–	concentration	11.6 ng/mL
Malic enzyme 2 S121Q (human)	–	enzyme activity, substrate	recombinant enzyme	pH 7.4, added: fumarate 3 mM	–	K0.5	2.11 ± 0.05 mM
insulin aspart	–	ELISA	human, younger adults with type 1 diabetes, serum	subcutaneous, 0.2 U/kg	–	Cmax	0.306 nM
insulin degludec	–	–	human	subcutaneous, 0.4 IU/kg, 2 FC level, single dose, reference formulation	–	Tmax, median	10 h
insulin icodec	–	–	Chinese type 2 diabetes patients, serum	subcutaneous, once-weekly geometric mean	–	half-life, steady state	159 h
colistin	Acinetobacter baumannii	broth microdilution	clinical isolate RKI-No_14/16	–	–	MIC	≤ 0.5 µg/mL
durvalumab	–	–	human cancer patients, plasma	intravenous, 1500 mg, cycle 4 day 1, added: adavosertib 250 mg once daily	–	Ctrough geometric mean	91000 ng/mL
rituximab	–	–	relapsed iNHL patients	dose not given, before third infusion	–	serum concentration	124000 ng/mL
insulin aspart	–	–	Japanese type 1 diabetes patients, serum free	subcutaneous, 0.2 U/kg single, least squares mean	–	Cmax	0.298 nM
human histone deacetylase 1	PP6C (human)	co-immunoprecipitation, IP-MS	CYB5R4 knockout cells	concentration not given	baseline: CYB5R4 knockout over parental	log2 fold change	-0.37

Molecule	target or system	assay	test system	conditions	how to read	quantity	result
Malic enzyme 2 S106K (human)	–	enzyme activity, substrate	recombinant enzyme	pH 7.4, added: fumarate 3 mM	–	K0.5	4.04 ± 0.1 mM
Pegcetacoplan	–	population PK model	human	dose not given	–	central volume, typical value	3.96 L
human RAB1B	CYB5R4 knockout human cells	PP6 interaction, 3xFLAG-PP6C IP-MS	–	concentration not given	baseline: CYB5R4 KO over parental	log2 fold change	-0.1
pegcetacoplan	–	item: immune system disorders	patients with PNH	dose not given, phase Ib trial	–	number of TEAEs	2
insulin icodec	–	–	human, end-stage renal disease, serum	subcutaneous, 1.5 U/kg single dose	baseline: normal renal function	AUC(0-inf) increase	14%
Neuropeptide Y	–	RP-HPLC	HALO Peptide ES-C18 column	25 µM, acetic acid/methanol, 10 min gradient	–	retention time	10 min
human ME2 R91A	–	enzyme activity, substrate	recombinant enzyme	pH 7.4, added: no fumarate	–	K0.5	1.88 ± 0.29 mM
insulin aspart	–	ELISA after PEG precipitation, item: free insulin aspart	human, type 1 diabetes, serum	subcutaneous, least squares mean, single dose	–	tmax	1.1 h
semaglutide	–	–	Wistar rat, male, diet-induced obese, blood, fasted	subcutaneous, dose not given, after 10 weeks treatment	–	serum ALT	26 ± 4 U/L
insulin aspart	–	–	human, type 1 diabetes, plasma	subcutaneous, 0.3 U/kg, geometric mean	–	insulin Cmax	5.04 ng/mL
insulin	–	ELISA	Sprague-Dawley rat, serum	subcutaneous, 5 IU/kg	–	Tmax	1 h
human ME2 R67A	–	enzyme activity, substrate	recombinant enzyme	pH 7.4, added: no fumarate	–	K0.5	0.88 ± 0.13 mM
ACEEQNPWARYLEWLFPTETLLLEL	–	ex vivo fluorescence imaging	peptide, BALB/c mice, 4T1 tumour-bearing, muscle	intravenous, 5 nmol, 2 h post-injection	higher = more uptake	mean fluorescence intensity	1150 ± 127 a.u.
human ME2 Q101T	–	enzyme activity, substrate	recombinant enzyme	pH 7.4, added: fumarate 3 mM	–	K0.5	3.62 ± 0.31 mM
ACEQNPIYWARYADWLFTTPLLLLDLALLVDADEGT	–	ex vivo fluorescence imaging	peptide, BALB/c mice, 4T1 tumour-bearing, muscle	intravenous, 5 nmol, 2 h post-injection	higher = more uptake	mean fluorescence intensity	1060 ± 138 a.u.
adrenomedullin	–	RP-HPLC	HALO RP-amide column	25 µM, acetic acid/acetonitrile, 25 min gradient	–	retention time	7.06 min

Some of these lines once more:
Molecule	target or system	assay	test system	conditions	how to read	quantity	result
pegcetacoplan	–	item: immune system disorders	patients with PNH	dose not given, phase Ib trial	–	number of TEAEs	2
insulin icodec	–	–	human, end-stage renal disease, serum	subcutaneous, 1.5 U/kg single dose	baseline: normal renal function	AUC(0-inf) increase	14%
Neuropeptide Y	–	RP-HPLC	HALO Peptide ES-C18 column	25 µM, acetic acid/methanol, 10 min gradient	–	retention time	10 min
human ME2 R91A	–	enzyme activity, substrate	recombinant enzyme	pH 7.4, added: no fumarate	–	K0.5	1.88 ± 0.29 mM
